Experimental data of several laboratories.
Each numbered part is a random draw from the data of one study; scales do not carry over between parts.

Series 1
Target: Histone acetyltransferase KAT6A, winged helix 2, GST fusion (KAT6A, Homo sapiens, UniProt Q92794, residues 85-181)
Technique: protein binding microarray
Form: double-stranded DNA, one strand shown
Matrix: in vitro
Tested at: not given
Setting: 8-mer, flanks averaged, mean of 2 arrays, mostly near background
Relative to: not given
Direction: higher = stronger binding
Construct (chain): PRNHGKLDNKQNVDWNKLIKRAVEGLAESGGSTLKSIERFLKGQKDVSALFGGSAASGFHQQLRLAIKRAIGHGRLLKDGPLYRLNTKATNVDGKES
With `GAATAAAA` the E-score was -0.00679.
With `ATACGCAG` the E-score was 0.0433.
`TATATACA` gave an E-score of -0.109.
With `ATACATGG` the E-score was -0.101.
`ATCTACCA` has an E-score of -0.0492.
`CAGGGTTA` has an E-score of -0.069.
`ATGTCGTC` has an E-score of -0.0668.
The E-score of `CGATCCCC` is reported as -0.0424.
For `ATATTGTG`, the E-score was -0.141.
The E-score of `CAATCTAC` is reported as -0.0836.
`GCCTTGTA` has an E-score of 0.0154.
`ATCTAGGC` has an E-score of -0.115.
With `AGTACACA` the E-score was -0.0495.
The E-score of `ATCTGTTG` is reported as -0.04.
`GGTATCAC` has an E-score of -0.00376.
`TAATGGCA` has an E-score of -0.0239.
`CTTATCGC` has an E-score of -0.0691.
`AAAAGCTA` gave an E-score of -0.0777.
`CAGTGAGA` gave an E-score of 0.0176.
The E-score of `CAGTACGG` is reported as -0.0614.
For `AATGCCCA`, the E-score was 0.0502.
The E-score of `AGAGGGTA` is reported as -0.127.
The E-score of `AGACCGGA` is reported as 0.00675.
With `AACAGCGG` the E-score was -0.0362.
With `CGTTCTGC` the E-score was 0.0706.

Series 2
Target: Ras GTPase-activating protein-binding protein 1, C-terminal RGG region (G3BP1, Homo sapiens, UniProt Q13283)
UniProt Q13283, sequence (whole entry, looked up): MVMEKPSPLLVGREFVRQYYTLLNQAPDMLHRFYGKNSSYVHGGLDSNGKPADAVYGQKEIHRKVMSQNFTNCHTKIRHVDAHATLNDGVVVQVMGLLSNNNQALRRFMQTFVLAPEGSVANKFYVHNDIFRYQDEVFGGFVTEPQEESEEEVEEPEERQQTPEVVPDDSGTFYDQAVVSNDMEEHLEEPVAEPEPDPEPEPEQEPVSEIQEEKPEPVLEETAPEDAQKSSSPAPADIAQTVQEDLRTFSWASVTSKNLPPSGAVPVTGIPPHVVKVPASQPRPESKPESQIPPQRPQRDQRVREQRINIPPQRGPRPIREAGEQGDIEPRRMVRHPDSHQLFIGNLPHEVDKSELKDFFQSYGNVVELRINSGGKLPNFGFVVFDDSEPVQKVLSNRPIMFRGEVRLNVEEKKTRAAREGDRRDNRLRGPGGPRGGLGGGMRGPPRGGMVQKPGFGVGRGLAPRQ
Technique: RNA Bind-n-Seq
Form: RNA
Matrix: in vitro
Tested at: 1 µM
Setting: whole 134-nt RNA, ends assumed
Together with: 150 mM KCl
Relative to: input library
Direction: higher = stronger binding
Shared flanks, not repeated: GGGAGUUCUACAGUCCGACGAUC … UGGAAUUCUCGGGUGUCAAGG
For `AAGUCCUGUGCUACACAUCGUAUGUACCGAAUCGGGUGGGAAAGGGUUUUUUUGGGAAAGUAUUAUGUUACGCCGUUCGGAUCUGCACUU`, the log2 enrichment was 0.701.
The log2 enrichment of `ACCAUGCAGGCGGGCAUCUUUGGGAAGUGGGGCAAGGGGGGGAUAGGGAGGGGGGUAACACUUUGGGAACAGGUGGUCCCAGGUCGUUUC` is reported as -1.32.
The log2 enrichment of `CUGUGCUACACAUCGUAUGUACCGAAUCGGGGUUUUUUUGGGGAAAAAGGGGUUUUUGGGGAAAGUAUUAUGUUACGCCGUUCGGAUCUG` is reported as 0.0807.
`UGGGAGGUGGAUUUUGUUUAUUUUUUUAGCUCAUUUCCAGGGGUCGGAAUUUUUUUUUAAUAUGUGUCAUGAAUAAAGUUGUUUUUGAAA` gave a log2 enrichment of 2.62.
For `GCAGGAAGUAAAAACAAAUGGAAAUGCUUCGGAUAGUUGCAGGGGUGGGGGUUGCUAAGGAAAGGGUGGGAUGGGAGUGGGUAAAGAGUU`, the log2 enrichment was 0.543.
The log2 enrichment of `ACCAUGCAGGUGGGCAUAUUUGGGAAGUGGGGCAAGGGGGGGAUAGGGAGGGGGGUAACACUUUGGGAACAGGUGGUCCCAGGUCGUUUC` is reported as -0.879.
The log2 enrichment of `UCCUGUGCUACACAUCGUAUGUACCGAAUCGGGGUGGGGUUUUUUUGGGGAAAAAGGGGAAAGUAUUAUGUUACGCCGUUCGGAUCUGCA` is reported as 0.98.
For `GCGGACCGAGAAAGUCGUUACGAGGAAGAAGAAGAACAAAGUCGAAGUAUGAGCCGGAAGAGGAAGGCAUCUGUGCACAGUUCGGGCCGU`, the log2 enrichment was 0.0141.
With `UGCUUGUUCUGGAGUGAUCUUCUGACUGGAAAAGAACUAUGUCAUGGAUCAAGGAAGGAGAGCUGUCACUUUGGGAGCGGUUCUGUGCCA` the log2 enrichment was 1.43.

Series 3
Target: RNA binding protein fox-1 homolog 2, RRM domain, GST-SBP tag (RBFOX2, Homo sapiens, UniProt O43251-10, residues 100-194)
Technique: RNA Bind-n-Seq
Form: RNA
Matrix: in vitro
Tested at: 365 nM
Setting: natural RNA segment, single round, ends assumed
Relative to: no-protein control
Direction: higher = stronger binding
Shared flanks, not repeated: GGGAGUUCUACAGUCCGACGAUC … UGGAAUUCUCGGGUGCCAA
Construct (chain): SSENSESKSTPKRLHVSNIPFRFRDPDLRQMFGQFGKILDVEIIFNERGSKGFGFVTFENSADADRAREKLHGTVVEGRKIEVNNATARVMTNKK
Under “RBNS enrichment (R)”, `AAUACUAGAUGCAAGUGUUUCCAAAGCAAAAAAGGUGCAAUUUUAAAGAAUACAUAGCCAAAGCAAUGUUACUACCCAUCAUACUGUUUAAAAAUGGAUAGAAAAUAAAA` is recorded as 0.404.
Under “RBNS enrichment (R)”, `UGUACAGUGCUAUAGCUGAAGAGUAAUAGGCUAGGCUAUCUGUAUAGCCUAAGUGUGUAACAGGCUAUAUACAUAUCAUCAGGGUCUGUGUAAGUAUACUCUGUGAUGUU` is recorded as 0.628.
`GAAAGUCACCUCUGCUAUUGUAGAAAGUGGCAGAAUAUCCAAACUUAACUCUAGCUUCCAUGUCUGUCUUUAUUACCUUCAUCUUCCUACUUCCUGUCCCACCGGCAUCU` — result for “RBNS enrichment (R)”: 0.734.
`UUGACUUGCUUGGUUUCAUUCACCAAACCAACCCAAGUCGUGUCAUUCUUGCCUAUUAACAUCUGAUGUAAGGCGCUCAUAUAGGCUGUGUGUACAAUCUUGGGCACUGA`: “RBNS enrichment (R)” 0.207.
`AGGUGGGGCUCCUGGCCCAGCAGCAGCAACUUGUUUGUUAGAAUGCAGACGCGCAGGCCCCACCUGGCCUCCUGAAUCAAAAUGGUGUGCGGCAGGGUGCAGCGAGCUGU`: “RBNS enrichment (R)” 0.502.
`CCACAACCAGGAAGAACAAAUCUGGGCAUUGAGCAAGCUAUGAGGGUCCCCGGGAGCACACGAACCCUGCCAGGCCCCCGCUGGCUCCUCCAGGCACGUCCCGGACCUGU`: “RBNS enrichment (R)” 0.63.
`AAGGUGACCGCCCAGCUCUCCCACAUCCCACUGGAUCUGGCUUACAGGGGGGUCGGAAGCCUGUCCUCACCGUCUCGGGGGUUGUGGCCCCCGCCCCCUCCCUAUAUGCA` — result for “RBNS enrichment (R)”: 3.39.
Under “RBNS enrichment (R)”, `UUUCUACUGGAGAGACCCUCACUUUGGGGUGAUGGUCCUGACCUAGACCCAGAGUCUGGAAGCUUCACACUGAGUUGGUGACUCCAGCUUCUAUCUCCUGGAGGUCCCAA` is recorded as 0.287.

Series 4
Target: PABPC1L2, full length, GST fusion (mouse, UniProt A0ABA7IW68)
Technique: RNAcompete
Form: RNA
Matrix: in vitro
Tested at: 20 nM
Setting: 7-mer, probes averaged, single round
Relative to: mean of 7-mers
Direction: higher = stronger binding
Construct (chain): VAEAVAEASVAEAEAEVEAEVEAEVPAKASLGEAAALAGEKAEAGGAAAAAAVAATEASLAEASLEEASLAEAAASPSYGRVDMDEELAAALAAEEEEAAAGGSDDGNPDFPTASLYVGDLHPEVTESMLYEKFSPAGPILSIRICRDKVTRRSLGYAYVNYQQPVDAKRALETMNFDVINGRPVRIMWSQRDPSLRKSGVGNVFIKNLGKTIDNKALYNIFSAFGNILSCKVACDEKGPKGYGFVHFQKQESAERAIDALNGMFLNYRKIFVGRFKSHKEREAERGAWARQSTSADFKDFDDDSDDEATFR
With `UUCCUGU` the 7-mer Z-score was -0.362.
The 7-mer Z-score of `AAACUCA` is reported as 0.437.
With `GAACCGA` the 7-mer Z-score was -0.113.
`CGUUUUU` has a 7-mer Z-score of -0.416.
`UUCGUUC` has a 7-mer Z-score of -0.46.
`CGCAAUG` has a 7-mer Z-score of -0.0609.
`GGUUGAA` gave a 7-mer Z-score of -0.0337.
`ACAGGGA` gave a 7-mer Z-score of 0.49.
`CCCGCUG` has a 7-mer Z-score of -0.371.
`GUCUAUC` gave a 7-mer Z-score of -0.335.
For `CUGGGUU`, the 7-mer Z-score was -0.0754.
With `GGCGAGG` the 7-mer Z-score was 0.372.
The 7-mer Z-score of `GCGUUUU` is reported as -0.255.
The 7-mer Z-score of `AGUUGUC` is reported as -0.338.
`UGAGGCC` has a 7-mer Z-score of 0.00436.
The 7-mer Z-score of `UGAAUAC` is reported as -0.0863.
`CCUUAAA` gave a 7-mer Z-score of 0.773.
For `UGUCGAU`, the 7-mer Z-score was -0.287.
`CCAAUUG` has a 7-mer Z-score of -0.358.
For `CGUACAG`, the 7-mer Z-score was -0.19.
`UGUCCAG` has a 7-mer Z-score of -0.316.
For `UUUAUAG`, the 7-mer Z-score was 0.191.
`GGACUUG` has a 7-mer Z-score of -0.0573.
With `UCCGUUC` the 7-mer Z-score was -0.369.
For `CGCAAUU`, the 7-mer Z-score was -0.231.

Repeated from above (series 1):
`ATGTCGTC` has an E-score of -0.0668.
The E-score of `CGATCCCC` is reported as -0.0424.
For `ATATTGTG`, the E-score was -0.141.
The E-score of `CAATCTAC` is reported as -0.0836.
`GCCTTGTA` has an E-score of 0.0154.
`ATCTAGGC` has an E-score of -0.115.
With `AGTACACA` the E-score was -0.0495.
The E-score of `ATCTGTTG` is reported as -0.04.
`GGTATCAC` has an E-score of -0.00376.
